# Published values gathered from unrelated publications.
# Each numbered part is a random draw from the data of one study; scales do not carry over between parts. Substitutions count along the parent as printed.

# Block 1
# Target: JUN, bZIP domain (human)
# Technique: DHFR protein complementation
# Matrix: yeast
# Notes: single substitutions, most at no-binding floor
# Relative to: wild-type JUN-FOS pair
# Reading: higher = stronger binding
# Starting sequence: JUN, bZIP domain (human); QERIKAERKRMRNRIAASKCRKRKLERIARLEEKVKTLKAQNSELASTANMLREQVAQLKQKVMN; partner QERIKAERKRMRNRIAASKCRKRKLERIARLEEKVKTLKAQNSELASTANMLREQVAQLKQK
Substitution,binding fitness
K34H,-0.0589 natural log
A40F,-0.425 natural log
I28Y,-0.981 natural log
A29S,-0.38 natural log
A40K,-0.0824 natural log
A46Y,-0.494 natural log
S43D,-0.0133 natural log
K36M,-0.161 natural log
E54M,-0.519 natural log
L31A,-1.18 natural log
S43V,-0.256 natural log
A40Y,-0.635 natural log
A57T,-0.209 natural log
E44C,-0.634 natural log
Q58S,-0.111 natural log
E32H,-0.819 natural log

# Block 2
# Target: RING finger protein unkempt homolog, zinc fingers 1-6, GST-SBP tag (UNK, Homo sapiens, UniProt Q9C0B0, residues 30-357)
# Chain of UniProt Q9C0B0 (30-357, looked up): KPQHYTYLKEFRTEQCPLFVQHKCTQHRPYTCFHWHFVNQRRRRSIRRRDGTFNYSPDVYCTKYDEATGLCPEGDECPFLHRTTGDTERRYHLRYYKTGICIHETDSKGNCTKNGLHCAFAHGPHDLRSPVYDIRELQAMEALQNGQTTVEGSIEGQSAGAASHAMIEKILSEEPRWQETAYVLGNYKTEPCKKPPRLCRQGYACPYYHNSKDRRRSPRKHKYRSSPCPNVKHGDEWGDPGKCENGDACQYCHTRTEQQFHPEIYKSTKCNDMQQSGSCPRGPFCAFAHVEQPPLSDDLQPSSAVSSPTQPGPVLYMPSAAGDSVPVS
# Technique: RNA Bind-n-Seq
# Molecule type: RNA
# Matrix: in vitro
# Tested at: not given
# Notes: RNA with constant flanks, human and mouse sites, ends assumed
# Relative to: input RNA pool
# Reading: higher = stronger binding
# Constant ends, left off below: GGGAGUUCUACAGUCCGACGAUC … CAACAGAGGAUUGAGCAUCA
Oligonucleotide,bound/input enrichment [ratio]
GAGAGCGAGGAGCACUACCACCUGGACGUGGCCAUCAAGACCAUGAACAAGGUUGCCAGUCACAUCAAUGAGAUGCAGAAAAUCCAUGAAGAGUUUGGGGCUGUGUUUGACCAGCUGAUU,0.106
AUCGUCAAUGAUGAUCAGUCCUUUUAUGCUGAUAUUUACAUGGAAGAUGGCUUAAUAAAACAAAUUGGAGACAAUCUGAUUGUUCCUGGAGGAGUGAAGACCAUUGAAGCCAAUGGGAAG,0.245
CAUGUGACAAAAUUUUUUAACUAUAAGGUUGUACUGCUGGGAAAAUACAAUGCACAGGGCUUAGGUUCAGAUCAUGAAUUAAUGCUGAGAUGUACCAAAGGACGAGAAUACAUCAAAGUC,0.228
GAGCUGGAGCAGAGCCUGCUAUUGGAGAAGGCGCAGGCCGAGCGGCUGCUCAGAGAAUUAGCGGAUAACAGGCUGACCACAGUGGCUGAGAAGUCUCGGGUGCUGCAGCUGGAAGAAGAG,0.275
UUUCCUCACAAAUGUGAGGUCUGUGAUAAAGGUUUUCAUCGUCCUUCUGAGCUCAAAAAGCAUAGUGAUAUCCAUAAGGGUAGGAAGAUUCAUCAGUGCAGGCACUGUGACUUUAAAACA,0.235
ACCCGUGUAAACAUUAUUCCCCCCAGGAGAAAAUGGUGUUAUUCAAAUGAAUCAUAAUAAAAUAGCCUCUAAACAGUUUCUAAGCGGGAGCCUCCGUGGAACUCAGCGCUCCGCUCCUCC,1.01
AUUAUUCAGGUUGAUAAAGCCUAUGACUACCUCGUUCAGAAUACAUCAUUUGCUAAUAAAUUAGGUUUUACUGUUACUGUUGGAAAUAACCGUGGCAUCUACCUCCGAGAUCCUGUUCAG,0.924
UUCACCGAGCUCAUUAAAGGAUUCGGUUGCCGAGGGGCCCAAGUAGAAGAAAUAUGGAGCUUAGAACCUGAGAGUUUUGAAAAGCUAAAGCCAGUUCAUGGGUUAAUUUUUCUUUUCAAG,0.176
AUCAUGGAUAAAAACACACUAGGGAGUGAUUUGCCCCGGAUCAAAACGGAGAUUGAGGCCUUGAAGAACCUGAGACAUCAGCAUAUAUGUCAACUCUACCAUGUGCUAGAGACAGCCAAC,0.248
CUGAUAGUGACUUCCUUACUAUUGCUUCCUGGACUAAACCAACAUGGAAUCAUUUUGAAGUACAUUGGAAUGGCCAAGAGGGAGAUAAACAAACUUCUCAAACAAAAAGAAAAGAAAAAC,0.275
GAUGUAAAAAAAAAAAAAAAAAAAAAAAAAAAAACACACACACAGAGGAAAGACGCUCUUUAGGUUUUGUUUUGUUUUUUUUUUUUGGUUUUGUUUUUUGUUUUUUUUACUCUAGGGAAA,1.32

# Block 3
# Target: CCNB1, cyclin fold, Cln2 fusion (human)
# Technique: yeast growth competition, sequencing
# Matrix: yeast
# Notes: weak parent motif
# Relative to: not given
# Reading: higher = stronger binding
# Starting sequence: GMNC docking peptide (human); KNAKRNLSSEFAN
Substitution,normalised enrichment score
S9Q,0.0318
E10P,-0.0408
E10L,-0.666
S9E,-0.302
S9R,0.643
L7K,0.439
N6S,0.183
N2F,0.219
S9G,0.304
F11I,0.238
E10F,0.0853
E10C,-0.147
S8A,-0.067
S9M,-0.0757
K4C,0.344
L7S,0.000937
N6D,-0.461
N2Q,0.15
N6W,0.286
N2T,0.187

# Mixed results
Substance,target,test,system,setting,scale,measurement,value
"PhoQ, residues 284 288 289 292 302 303 SQSLSM","PhoP, residues 12 14 15 18 19 HLGGL (Escherichia coli, UniProt P23836)","Sort-seq, refers to: YFP reporter",E. coli,"PhoQ-PhoP variant library, with: 10 µM Mg2+","relative to: high Mg2+ state, higher = stronger signaling",fold induction,1.31

# Excerpt of the above (block 1):
Substitution,binding fitness
L31A,-1.18 natural log
S43V,-0.256 natural log
A40Y,-0.635 natural log
